Measurements from different studies.
Each line is one published result; not all experiments were run side by side. ± marks the error that the study gave.

SMILES = CCCC[C@H](NC(=O)CNC(=O)CNC(=O)[C@H](CCCCNC(=O)[C@H](CCN)NC(=O)C(C)c1ccc(CC(C)C)cc1)NC(=O)CN1CCN(CC(=O)O)CCN(CC(=O)O)CCN(CC(=O)O)CC1)C(=O)N[C@H]1CC(=O)NCCCC[C@@H](C(N)=O)NC(=O)[C@H](Cc2c[nH]c3ccccc23)NC(=O)[C@H](CCCNC(=N)N)NC(=O)[C@@H](Cc2ccccc2)NC(=O)[C@H](Cc2c[nH]cn2)NC1=O (stereo partly shown) [lutetium-177 labelled]; system = C57 mice, tumour-bearing, heart; conditions = 2 h; tissue uptake = 0.44 ± 0.18 %ID/g
SMILES = O=C(NCC1OC2CCC=CCCC2O1)c1ccc([18F])nc1 (stereo not shown); system = healthy female BALB/c nude mice, skin; conditions = intravenous, 7.4 MBq per mouse, 60 min; tissue uptake = 1.3 ± 0.3 %ID/g
SMILES = N#C[C@@H]1CCCN1C(=O)CNC(=O)c1ccnc2ccc(OCCCN3CCN(C(=O)CCc4ccc(O)c(CN5CCN6CC(=O)[O][Al-]([18F])([O]C(=O)C5)[O]c5ccc(CCC(=O)N7CCN(CCCOc8ccc9nccc(C(=O)NCC(=O)N%10CCC[C@H]%10C#N)c9c8)CC7)cc5C6)c4)CC3)cc12 (stereo partly shown); system = BALB/c nude mice, U-87 MG xenograft, brain; conditions = 1 h; tissue uptake = 0.16 ± 0.02 %ID/g
SMILES = Cc1cc(C)n(CCN(CCN)CCCCCCNC(=O)[C@@H](N)Cc2c[nH]cn2)n1.[99Tc+].[C-]#[O+].[C-]#[O+].[C-]#[O+]; system = BALB/c nude mice, MCF7 xenograft, blood; conditions = intravenous, 4 h; tissue uptake = 0.24 ± 0.08 %IA/g
SMILES = CC(C)C[C@H](NC(=O)[C@@H](CCCCNC(=O)[C@@H](Cc1ccccc1)NC(=O)CCCCCCCNC(=O)CN1CCN(CC(=O)O)CCN(CC(=O)O)CCN(CC(=O)O)CC1)NC(=O)[C@H](Cc1ccc(O)cc1)NC(=O)[C@H](CO)NC(=O)[C@H](Cc1c[nH]c2ccccc12)NC(=O)[C@H](Cc1c[nH]cn1)NC(=O)[C@@H]1CCC(=O)N1)C(=O)N[C@@H](CCCNC(=N)N)C(=O)N1CCC[C@H]1C(=O)NCC(N)=O [indium-111 labelled]; assay = biodistribution; system = male athymic nude mice, DU-145 prostate cancer xenograft, liver; conditions = intravenous, 0.037 MBq, 0.5 h post-injection; tissue uptake = 1.56 ± 0.22 %ID/g
SMILES = CCCC[C@H](NC(=O)CCCCCCCNC(=O)CN1CCN(CC(=O)O)CCN(CC(=O)O)CC1)C(=O)N[C@H]1CC(=O)NCCCC[C@@H](C(N)=O)NC(=O)[C@H](Cc2c[nH]c3ccccc23)NC(=O)[C@H](CCCNC(=N)N)NC(=O)[C@@H](Cc2ccccc2)NC(=O)[C@H](Cc2c[nH]cn2)NC1=O [fluorine-18 labelled]; system = C57 mice B16-F10 melanoma, pancreas; conditions = intravenous, 0.37 MBq, 0.5 h; tissue uptake = 0.43 ± 0.16 %ID/g
SMILES = COc1ccc(Nc2nc(Nc3ccc(OCCOCC[18F])cc3)ncc2Br)cc1; system = ICR mice, S180 tumour, stomach; conditions = intravenous, 30 min, with: PF-562271 33 mg/kg oral block; tissue uptake = 0.57 ± 0.09 %ID
SMILES = CCCC[C@H](NC(=O)COCCOCCNC(=O)CN1CCN(CC(=O)O)CCN(CC(=O)O)CC1)C(=O)N[C@H]1CC(=O)NCCCC[C@@H](C(N)=O)NC(=O)[C@H](Cc2c[nH]c3ccccc23)NC(=O)[C@H](CCCNC(=N)N)NC(=O)[C@@H](Cc2ccccc2)NC(=O)[C@H](Cc2c[nH]cn2)NC1=O [fluorine-18 labelled]; system = C57 mice B16-F10 melanoma, tumor; conditions = intravenous, 0.37 MBq, 2 h; tissue uptake = 11.7 ± 1.56 %ID/g
SMILES = O=C(NCC1OC2CCC=CCCC2O1)c1ccc(COCCOCCOCC[18F])cc1 (stereo not shown); system = healthy female BALB/c nude mice, small intestine; conditions = intravenous, 7.4 MBq per mouse, 120 min; tissue uptake = 2.9 ± 0.1 %ID/g
SMILES = Cc1cc(C)n(CCN(CCN)CCCCCCNC(=O)[C@@H](N)Cc2c[nH]c3ccccc23)n1.[99Tc+].[C-]#[O+].[C-]#[O+].[C-]#[O+]; system = BALB/c nude mice, A549 xenograft, muscle; conditions = intravenous, 4 h; tissue uptake = 0.14 ± 0.02 %IA/g

For quick reference, copied from above:
SMILES = O=C(NCC1OC2CCC=CCCC2O1)c1ccc([18F])nc1 (stereo not shown); system = healthy female BALB/c nude mice, skin; conditions = intravenous, 7.4 MBq per mouse, 60 min; tissue uptake = 1.3 ± 0.3 %ID/g
